Measurements pooled from the literature.
Compare with care: the assays were run in different laboratories. Values joined by “and” are separate records of one study, mostly repeats; a detail may differ. Numbers after ± are the reported error.

Structure (SMILES)	test	system	conditions	how to read	measurement	result
Cn1cncc1-c1c(F)cncc1NC(=O)c1c(N)nn2cc(F)cnc12	–	human patients	oral, 130 mg once daily	–	grade ≥3 hyponatraemia incidence	11%
CC(C)(C(=O)NC1C2CC3CC1CC(C(N)=O)(C3)C2)N1CCN(c2ccc(C(F)(F)F)cn2)CC1 (centres unmarked)	–	human, plasma	1 mg once daily, 5 days, median	–	dose-normalised free Cmax	0.096 (ng/mL)/mg
Cc1ccc(F)c2cc(C(=O)N[C@@H]3CCC[C@H](N4CC[C@H](N(C)S(C)(=O)=O)C4)C3)[nH]c12	–	CD1 mouse, plasma	oral, 100 mg/kg, 0.25 h	–	plasma concentration	1940 ng/mL
O=C(Nc1ccc(Cl)cc1)Nc1ccc(Cl)c(Cl)c1	ultrafiltration	cow milk whey	2000 nM nominal in whole milk	–	dose fraction in permeate	2.62%
COc1cc2c(Oc3ccc4[nH]c(C)cc4c3F)ccnc2cc1OCC1(N)CC1	–	paediatric refractory sarcoma patients	8 mg	–	intestinal obstruction incidence	0%
Cn1nc(NS(C)(=O)=O)c2c(Cl)ccc(-n3c([C@H](Cc4cc(F)cc(F)c4)NC(=O)Cn4nc(C(F)F)c5c4C(F)(F)[C@@H]4C[C@H]54)nc4nc(OCCC(F)(F)F)ccc4c3=O)c21	item: blood triglycerides increased	human	625 mg, powder in bottle	–	drug-related adverse events	0%
COc1cccc(Oc2ccccc2NC(=O)CNC(=O)c2cccc3ccccc23)c1	–	esterase-deficient SCID mice, male, blood	oral, 15 mg/kg/day, 14 days, toxicity study	baseline: white cells	monocytes	6.4% and 3% and 4%
O=S(=O)(Nc1ccccc1)c1ccc(NC(=S)Nc2ccccc2)cc1	item: TRIG	male mouse, blood	oral, 20 mg/kg daily, 14 days	–	blood chemistry level	215 mg/dL
CN1CC[C@@H](c2c(O)cc(O)c3c(=O)cc(-c4ccc(C(F)(F)F)cc4Cl)oc23)[C@@H]1CO	item: Syncope	relapsed AML	oral, 150 mg, grade 3-4, intermittent dosing	–	patients with adverse event	0%
COc1ncccc1-c1cnn2ccc(N3CCN(C(=O)OC(C)C)CC3)nc12	–	mouse, SNL model, brain	oral, 10 mg/kg, 30 min	–	drug concentration	14 µM
NCCCC[C@@H]1NC(=O)[C@@H](Cc2c[nH]c3ccccc23)NC(=O)[C@H](c2ccccc2)NC(=O)[C@@H]2C[C@@H](OC(=O)NCCN)CN2C(=O)[C@H](Cc2ccccc2)NC(=O)[C@H](Cc2ccc(OCc3ccccc3)cc2)NC1=O	–	healthy human volunteers	1950 µg twice daily	–	subjects with dry mouth	6%
COc1ccnc(C(=O)N[C@H]2COC(=O)[C@H](Cc3ccccc3)[C@@H](OC(=O)C(C)C)[C@H](C)OC2=O)c1OCOC(=O)C(C)C	–	silt loam soil	organic carbon 1.0 %, pH 5.5	–	Freundlich adsorption coefficient Kf	9.36 mL/g
O=[N+]([O-])NC1=NCCN1Cc1ccc(Cl)nc1	–	whole cow milk	2000 nM nominal	–	dose fraction in skim milk	96.3%
C[C@]1(CO)Cc2ncn(-c3ccc(C#N)c(Cl)c3)c2C(=O)O1	–	Japanese subjects	20 mg single dose	–	drug-related Headache incidence	0%
CC(C)(O)c1cc(Nc2cc(Oc3cn(C4CC4)nc3C3CCOCC3)ccn2)ccn1	Thrombocytopenia	patients with advanced cancer, grade 4 glioma expansion	oral, 50 mg twice daily, grade ≥3, 2 weeks on/2 weeks off schedule	–	treatment-related adverse events	0%
C[C@@H](NC(=O)N1C(=O)[C@H](Cc2ccnc(N)c2)[C@H]1C(=O)O)C1CCCCC1	–	healthy adult Chinese volunteers	continuous intravenous infusion, 1.0 mg/kg/h, 5-day infusion, CTCAE 5.0 grading	–	incidence of elevated creatine phosphokinase	12.5%
C[C@@H]1OC(=O)NN=C1c1ccc(-c2ccc(F)cc2)c(C(F)(F)F)c1	phase I trial, item: Pneumonitis all grades	human patients	5 mg once daily	–	patients with adverse event	0%
CC(C)[C@@H]1NC(=O)CNC(=O)[C@H](CC(N)=O)NC(=O)[C@H](CCCNC(=N)N)NC(=O)[C@H](Cc2ccc(O)cc2)NC(=O)[C@H](C(C)C)NC(=O)[C@@H](NC(=O)[C@@H](NC(=O)[C@H](CC(N)=O)NC(=O)[C@H](Cc2c[nH]c3ccccc23)NC(=O)[C@H](C)NC(=O)[C@H](Cc2ccccc2)NC(=O)CN)C(C)C)CSSC[C@@H](C(=O)N[C@@H](Cc2cnc[nH]2)C(=O)N[C@@H](CCCNC(=N)N)C(=O)N[C@@H](CCCNC(=N)N)C(=O)N[C@@H](C)C(=O)N[C@@H](CC(N)=O)C(N)=O)NC(=O)[C@H](C(C)C)NC(=O)[C@H](CCCNC(=N)N)NC1=O	–	ICR mice, blood	intraperitoneal, 5 mg/kg, day 5	–	monocytes	2.65 ± 0.27%

Structure (SMILES)	test	system	conditions	how to read	measurement	result
CO[C@H]1C[C@@H]2CC[C@@H](C)[C@@](O)(O2)C(=O)C(=O)N2CCCC[C@H]2C(=O)O[C@H]([C@H](C)C[C@@H]2CC[C@@H](OC(=O)NCCOCCOCCOCCOCCOCCOCCOCCOCCC(=O)N3CCc4cc(Cn5nc(-c6ccc7oc(N)nc7c6)c6c(N)ncnc65)ccc4C3)[C@H](OC)C2)C[C@@H](O)[C@H](C)/C=C(\C)[C@@H](O)[C@@H](OC)C(=O)[C@H](C)C[C@H](C)/C=C/C=C/C=C/1C	dose-escalation trial	patients with advanced solid tumours	intravenous, all doses weekly, grade ≥3	–	AEs leading to dose reduction	5.3%
COc1ccc(-c2c(-c3ccc(C#N)c(F)c3)nc(N3CCC(N)CC3)n(C)c2=O)cc1F	item: Constipation	human patients	oral, dose not given, dose escalation, NG	–	serious adverse event incidence	2%
O=c1nc(NO)ccn1[C@@H]1O[C@H](CO)[C@@H](O)[C@H]1O	–	rat maternal blood dialysate	1000 ng/mL, high concentration, three cycles, with: molnupiravir 250 ng/mL	–	freeze-thaw stability	96.8 ± 3.77%
C[C@]1(O)C[C@@](N)(c2ccc(-c3nc4n(c3-c3ccccc3)COc3ccncc3-4)cc2)C1	–	human, advanced or metastatic solid tumours	28 mg intermittent, phase I dose escalation	–	patients with Hyperphosphatemia TEAE	33.3%
O=C(c1ccc(F)c(F)c1Nc1ccc(I)cc1F)N1CC(O)([C@@H]2CCCCN2)C1	–	patients aged 6 to sample A years	oral, dose not given	–	SAE leading treatment withdrawal	0%
CNC(=O)c1cc(Oc2ccc(NC(=O)Nc3cc(C(C)(C)C)nn3-c3ccc4ncccc4c3)c(F)c2)ccn1	muscular weakness, NCI CTC v3.0	human patients	oral, 200 mg twice daily, tablet, dose at onset	–	related SAE	25%
CCc1ccc(CC/C=C/c2ccc3c(c2)C(=O)CC3)cc1	–	Sprague-Dawley rat, female	oral, 30 mg/kg/day, 14 days	–	HDW	23.6 g/L
CCN1[C@@H](C(=O)NC23CCC(C(=O)O)(CC2)CC3)[C@H](c2cccc(Cl)c2F)[C@]2(C(=O)Nc3cc(Cl)ccc32)C12CCCCC2	–	patients with advanced solid tumours	oral, dose not given, all doses	–	grade ≥3 Leukopenia incidence	23.8%
CC(=O)c1c(C)c2cnc(Nc3ccc(C4CCN(CCS(C)(=O)=O)CC4)cn3)nc2n(C2CCCC2)c1=O	–	HR+/HER2- advanced breast cancer patients	oral, 100 mg	–	patients with TEAE grade ≥3	100%
COc1cc(C(=O)NC2CCN(C)CC2)c(F)cc1Nc1ncc(C(F)(F)F)c(Oc2cccc3c2C(=O)N(C)C3)n1	–	human patients, plasma	oral, 300 mg once daily repeated, geometric mean	–	mean residence time at steady state	31.9 h
O=C(O)CCCOc1ccc(F)cc1-c1cc(-c2ccccc2C(F)(F)F)n(-c2ccccc2)n1	–	Crl:CD(SD) rats, female, blood	iv, 25 µg/kg, 14 days	–	haematocrit	41.1%
O=C(Nc1ccccc1)C1CCN(C(=O)Oc2cccnc2)CC1	adverse event reporting	healthy women	oral, 100 mg	–	subjects with Hypoaesthesia adverse event	0%
O=C(Nc1cccc(B(O)O)c1)c1cccc(OCc2ccccc2)c1	PAMPA	–	200 µM, 5 h, pH 7.4	–	membrane retention	36.7%
CCCCCCCCCCC[C@H](OC1OC[C@H](O)[C@@H](O)[C@@H]1O)[C@H](O)[C@H](O)C[C@@H]1CC(=O)N[C@H](CO)C(=O)N[C@H]([C@H](O)c2ccc(O)cc2)C(=O)N[C@H](CCN)C(=O)NCC(=O)N[C@@H](CC(N)=O)C(=O)N[C@@H](CO)C(=O)N[C@@H]([C@H](O)C(N)=O)C(=O)N1 (some centres unmarked)	LC-MS/MS	rabbit plasma, sodium citrate	800 ng/mL, 6 freeze-thaw cycles	–	measured concentration	747 ng/mL
CN1CCN(S(=O)(=O)c2cc([N+](=O)[O-])ccc2N(CCOS(C)(=O)=O)CCOS(C)(=O)=O)CC1	–	naive NSG mice, plasma	intraperitoneal, 10 mg/kg	–	apparent volume Vz/F	1.13 (mg/kg)/(µM)
CC(=O)NCC(=O)NCC(=O)N[C@H](C(=O)N[C@@H](Cc1ccc(O)cc1)C(=O)N[C@@H](CO)C(=O)N[C@H]1CSSC[C@@H](C(=O)N[C@@H](CCCNC(=N)N)C(=O)N2CCC[C@H]2C(=O)N[C@@H](CCC(N)=O)C(=O)N[C@@H](CCCNC(=N)N)C(=O)NCC(=O)NCCC(=O)N[C@@H](CCCCNC(=O)CN(CC(=O)NCCCC[C@H](NC(=O)CCNC(=O)CNC(=O)[C@H](CCCNC(=N)N)NC(=O)[C@H](CCC(N)=O)NC(=O)[C@@H]2CCCN2C(=O)[C@H](CCCNC(=N)N)NC(=O)[C@@H]2CSSC[C@H](NC(=O)[C@H](CO)NC(=O)[C@H](Cc3ccc(O)cc3)NC(=O)[C@@H](NC(=O)CNC(=O)CNC(C)=O)[C@@H](C)O)C(=O)N[C@@H](Cc3c[nH]cn3)C(=O)N[C@@H](Cc3ccccc3)C(=O)NCC(=O)N[C@@H](C)C(=O)N[C@@H](CC(C)C)C(=O)N[C@@H]([C@@H](C)O)C(=O)N[C@@H](Cc3c[nH]c4ccccc34)C(=O)N[C@@H](C(C)C)C(=O)N2)C(N)=O)C(=O)CCN)C(N)=O)NC(=O)[C@H](C(C)C)NC(=O)[C@H](Cc2c[nH]c3ccccc23)NC(=O)[C@H]([C@@H](C)O)NC(=O)[C@H](CC(C)C)NC(=O)[C@H](C)NC(=O)CNC(=O)[C@H](Cc2ccccc2)NC(=O)[C@H](Cc2c[nH]cn2)NC1=O)[C@@H](C)O	MSD immunoassay	BALB/c mice, healthy female, serum	subcutaneous, 0.08 mg/kg, 0.5 h, LLOQ 2.0 ng/mL	–	serum concentration	not detected
Clc1ccc(-c2ccccc2)cc1	–	female Sprague-Dawley rats, serum	inhalation, 23 µg/rat, 1 h after exposure	–	blood urea nitrogen	17 ± 2 mg/dL

Excerpt of the above:
Structure (SMILES)	test	system	conditions	how to read	measurement	result
C[C@@H](NC(=O)N1C(=O)[C@H](Cc2ccnc(N)c2)[C@H]1C(=O)O)C1CCCCC1	–	healthy adult Chinese volunteers	continuous intravenous infusion, 1.0 mg/kg/h, 5-day infusion, CTCAE 5.0 grading	–	incidence of elevated creatine phosphokinase	12.5%
C[C@@H]1OC(=O)NN=C1c1ccc(-c2ccc(F)cc2)c(C(F)(F)F)c1	phase I trial, item: Pneumonitis all grades	human patients	5 mg once daily	–	patients with adverse event	0%
CC(C)[C@@H]1NC(=O)CNC(=O)[C@H](CC(N)=O)NC(=O)[C@H](CCCNC(=N)N)NC(=O)[C@H](Cc2ccc(O)cc2)NC(=O)[C@H](C(C)C)NC(=O)[C@@H](NC(=O)[C@@H](NC(=O)[C@H](CC(N)=O)NC(=O)[C@H](Cc2c[nH]c3ccccc23)NC(=O)[C@H](C)NC(=O)[C@H](Cc2ccccc2)NC(=O)CN)C(C)C)CSSC[C@@H](C(=O)N[C@@H](Cc2cnc[nH]2)C(=O)N[C@@H](CCCNC(=N)N)C(=O)N[C@@H](CCCNC(=N)N)C(=O)N[C@@H](C)C(=O)N[C@@H](CC(N)=O)C(N)=O)NC(=O)[C@H](C(C)C)NC(=O)[C@H](CCCNC(=N)N)NC1=O	–	ICR mice, blood	intraperitoneal, 5 mg/kg, day 5	–	monocytes	2.65 ± 0.27%
